# Measurements pooled from the literature.
# Each numbered part is a random draw from the data of one study; scales do not carry over between parts.

# Series 1
# Target: Sal-like protein 4, full length isoform B (SALL4, Homo sapiens, UniProt Q9UJQ4-2, residues 1-616)
# Technique: universal PBM
# Form: double-stranded DNA, one strand shown
# Medium: in vitro
# Tested at: not given
# Setting: 8-mer, flanks averaged, mean of replicates
# Reading: higher = stronger binding
# Construct (chain): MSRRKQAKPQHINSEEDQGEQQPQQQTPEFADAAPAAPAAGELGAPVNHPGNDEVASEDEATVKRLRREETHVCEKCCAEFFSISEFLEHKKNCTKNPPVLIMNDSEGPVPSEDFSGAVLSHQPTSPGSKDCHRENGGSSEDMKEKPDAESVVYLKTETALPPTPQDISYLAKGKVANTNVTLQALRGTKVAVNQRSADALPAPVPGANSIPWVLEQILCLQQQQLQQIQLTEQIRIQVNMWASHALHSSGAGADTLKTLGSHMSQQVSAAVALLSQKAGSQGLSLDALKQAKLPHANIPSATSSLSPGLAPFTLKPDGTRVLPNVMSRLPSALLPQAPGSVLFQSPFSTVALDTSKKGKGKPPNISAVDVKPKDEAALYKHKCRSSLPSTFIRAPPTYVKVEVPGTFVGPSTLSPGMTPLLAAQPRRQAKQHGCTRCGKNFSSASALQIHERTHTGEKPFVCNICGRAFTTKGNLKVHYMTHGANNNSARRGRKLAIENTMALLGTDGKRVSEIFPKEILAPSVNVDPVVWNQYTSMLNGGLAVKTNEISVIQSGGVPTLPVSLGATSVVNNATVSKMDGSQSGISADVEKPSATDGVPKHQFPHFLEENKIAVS
Oligonucleotide,E-score
CCAGTGCG,-0.392
GGTTCCAC,-0.145
AGGCGGCG,-0.332
CGTCCAAG,-0.171
CGTGTTCC,-0.217
AACAGCTG,0.0453
CGACCACG,-0.285
ATCGACGA,0.00781
AGGCCTAC,-0.2
CCAGTACA,0.13
AATAAGTC,0.212
CACAGGAA,0.048
AAATCATT,0.303
ACTCAACA,0.195
CTTGTTTA,0.0465
ACAAGTAG,0.075
AAATCTGA,0.084
AATGTACG,0.035
TATGGGCA,0.0642
CTTTATGA,0.335
ACGGTAGG,-0.175

# Series 2
# Target: Interferon regulatory factor 7, full length, phosphomimetic (IRF7, Homo sapiens, UniProt Q92985, residues 1-503, S101K/S471D/S472D/S475D/S476D/S477D/S483D/S484D/S487D)
# Chain of UniProt Q92985 (whole entry, unmodified, looked up): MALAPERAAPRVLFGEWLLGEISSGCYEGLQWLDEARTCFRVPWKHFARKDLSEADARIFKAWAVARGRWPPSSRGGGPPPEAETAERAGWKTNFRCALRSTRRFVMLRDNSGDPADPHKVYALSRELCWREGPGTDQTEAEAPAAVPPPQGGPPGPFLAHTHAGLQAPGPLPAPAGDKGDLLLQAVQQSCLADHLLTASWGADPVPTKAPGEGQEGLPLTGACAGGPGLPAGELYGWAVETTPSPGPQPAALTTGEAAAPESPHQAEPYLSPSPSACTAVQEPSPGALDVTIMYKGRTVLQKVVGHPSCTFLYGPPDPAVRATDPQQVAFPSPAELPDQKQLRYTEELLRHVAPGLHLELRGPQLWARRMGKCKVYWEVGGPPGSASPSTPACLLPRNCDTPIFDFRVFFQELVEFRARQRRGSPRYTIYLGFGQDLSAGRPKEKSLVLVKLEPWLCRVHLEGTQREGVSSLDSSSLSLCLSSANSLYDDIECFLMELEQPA
# Technique: protein-binding microarray
# Form: double-stranded DNA, one strand shown
# Medium: in vitro
# Tested at: 250 nM
# Setting: 60-bp whole probe
# Added: salmon DNA 0.4 mg/ml
# Relative to: random background probes
# Reading: higher = stronger binding
# Shared flanks, not repeated: GCCTAGCAC … GTCTTGATTCGCTTGACGCTGCTG
Oligonucleotide,log fluorescence [z-score]
TTAGGTTTCGGTTCCGGTCAGTGCTAG,12.1
TCACATCTCTGTCCGTGACTGTGCTAG,0.566
GACAGACTGGGGACTGGGGACGTGCTA,-0.429
TTCAGTTTCTCTTTCCTTCTGTGCTAG,6.19
TTAGATATCACTTTCGATTAGTGCTAG,2.65
ACTCAGTAACATTATTGTAGGTGCTAG,-0.0779
GACGGTATCGGTATCGGGGCGTGCTAG,1.03
TCATTACTTTCTATCTCACTGTGCTAG,1.43
TTCTGATCCATTTTGGTTTTGTGCTAG,0.49
GACTATTTCAGTTCCGAGACGTGCTAG,1.13
TCAGGTATCGGGTTTCGGTTAGTGCTA,7.38
TTACGTATCCTTATCCTTTAGTGCTAG,0.745
TTAGGTCTCGGACTGGGGTAGTGCTAG,0.116
GACGCTATCGGGACTGGGGACGTGCTA,-0.165
TTAGGTATCGACACTCGGTTAGTGCTA,0.212
TTAGCTATCAGTTTCGATTAGTGCTAG,7.57
TTTGGAGTCATTCTCAACCCGTGCTAG,-0.551

# Series 3
# Target: RING finger protein unkempt homolog, zinc fingers 1-6, GST-SBP tag (UNK, Homo sapiens, UniProt Q9C0B0, residues 30-357)
# Technique: RNA Bind-n-Seq
# Form: RNA
# Medium: in vitro
# Tested at: not given
# Setting: RNA with constant flanks, human and mouse sites, ends assumed
# Relative to: input RNA pool
# Reading: higher = stronger binding
# Construct (chain): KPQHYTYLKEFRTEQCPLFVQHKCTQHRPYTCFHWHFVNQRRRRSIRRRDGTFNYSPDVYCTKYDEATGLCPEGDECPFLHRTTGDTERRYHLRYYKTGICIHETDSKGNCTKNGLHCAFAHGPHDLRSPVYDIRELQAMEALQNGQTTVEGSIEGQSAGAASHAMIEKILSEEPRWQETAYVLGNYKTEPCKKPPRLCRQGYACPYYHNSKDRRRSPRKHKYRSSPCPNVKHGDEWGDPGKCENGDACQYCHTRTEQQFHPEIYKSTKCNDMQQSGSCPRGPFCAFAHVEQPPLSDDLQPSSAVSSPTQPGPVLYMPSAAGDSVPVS
Oligonucleotide,bound/input enrichment [ratio]
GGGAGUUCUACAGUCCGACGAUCCUGGACACCAACAGUGAUGGUCAGCUAGAUUUCUCAGAAUUUCUUAAUCUGAUUGGUGGCCUAGCUAUGGCUUGCCAUGACUCCUUCCUCAAGGCUGUCCCUUCCCAGAAGCGGACCUGACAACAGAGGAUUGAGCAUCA,0.0686
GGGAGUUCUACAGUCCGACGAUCCUACCUUCUCGUCUUUAUAGUGCCACAAUUUAUACAGUUCUGUGUUUGACCCGUCGUCUUCAUAGCCUGCAGUUCUUGCCAUUGGCUCCGUUAGGUUUGUCUUCACCCACCAGCUUCAUUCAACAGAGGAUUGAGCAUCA,0.638
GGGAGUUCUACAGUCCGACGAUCGUUAUAGUCAUCCCACAGUCUUCUAUUUCCACCAAUGCAGUAGUGGUAGAUCUUGGGUUAAUCAGAGUUCAUAAUCAGUUCAGUCUGGUGUCUGAUGAAGACUACUUAAAUCCUCCAGUACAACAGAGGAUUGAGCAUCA,0.222
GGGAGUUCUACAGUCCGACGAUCCAGCCUCAGAGCCCAGACUUCCUGGAUAUUACCAACCCUAAAGCGGUAUUAGAAAAUGCAUUGAGAAACUUCGCCUGUCUGACGACUGGAGAUGUGAUUGCUAUCAACUACAAUGAGAAGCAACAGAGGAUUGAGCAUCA,0.402
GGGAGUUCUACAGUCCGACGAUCGAGCUGGGAUACAAGCAAGAAAGAUCUGACUGAAUAUUUGUCUCGAUUUGGGGAAGUGGUAGACUGCACAAUUAAAACAGACCCAGUCACGGGAAGAUCAAGAGGAUUUGGAUUUGUGCUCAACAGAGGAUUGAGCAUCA,0.339
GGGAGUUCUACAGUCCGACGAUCCUUCAUGUCUUUCUCUGCAGGCAGGAGUUAAGGUCCUAUUCUCAUGGAUGACUUGUGCUGAUUGUCUUGGUAGUGUGGAUUGAUAUUGUUGCUUCCAUUUUCCAGGCUGACCUAGGACAGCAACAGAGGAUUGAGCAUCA,0.129
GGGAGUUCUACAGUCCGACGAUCAAGUCUUUGGGAAGCAGUGAUUUGAAAUUUUGAGGUGACAGGCUUUUAAGGUAUAUUUUGUAGCAUGGGUUGGCAAUCUACAGCAUGUGGGCCAAAUCCAGCCUGCUGCCUGUUUUUAUACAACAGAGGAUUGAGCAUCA,0.455
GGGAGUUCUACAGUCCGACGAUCCUGGGCUGCUCGGGUUAGAUCGUCAGGAAAAGCCUAAAGAUUAGACUGUAAGAAAAGAAAAUAGAAGCCAUGUUUCGAAGACCUGUAUUACAGGUACUUCGUCAGUUUGUAAGACAUGAGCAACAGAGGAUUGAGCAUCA,2.23
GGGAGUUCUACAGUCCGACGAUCAAAUAUGAAACUGUGCAAGACAUUCUGAAAGAAUUCUUUGAUUUACGAUUAAGUUAUUACGGUUUACGUAAGGAGUGGCUUGUGGGAAUGUUGGGAGCAGAAUCUACAAAGCUUAACAAUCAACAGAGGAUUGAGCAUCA,0.188
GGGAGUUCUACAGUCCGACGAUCAAAGUGAAACUGGCAGCUGUGGAUGCCACCAUGAAUCAGGUUCUGGCCAGCCGAUACGGGAUUAAAGGAUUCCCUACAAUCAAGAUAUUUCAGAAAGGCGAGUCUCCUGUGGACUAUGAUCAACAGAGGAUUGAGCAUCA,0.135
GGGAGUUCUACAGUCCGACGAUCCUCUGCAUUGAACUUACGUAUCCAUGCCAAGGAAUGGAAUUUCCAUCCUGAGCCAGUUCAGUUAGGUGUCAAUUGAUACUAUUUUAAUUUUUUAUGCAAUCUGAUGAGAUGAGCUCAGAUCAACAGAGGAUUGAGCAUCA,9.19

# Series 4
# Target: Histone acetyltransferase KAT6A, winged helix 1, GST fusion (KAT6A, Homo sapiens, UniProt Q92794, residues 1-85)
# Technique: protein binding microarray
# Form: double-stranded DNA, one strand shown
# Medium: in vitro
# Tested at: not given
# Setting: 8-mer, flanks averaged, mean of 2 arrays, mostly near background
# Relative to: not given
# Reading: higher = stronger binding
# Residues (chain): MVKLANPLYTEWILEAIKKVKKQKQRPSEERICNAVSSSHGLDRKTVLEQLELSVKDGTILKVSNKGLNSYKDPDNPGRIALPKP
Oligonucleotide,E-score
AAACCAGG,0.00732
AAGATGTC,-0.0301
AATGACAC,-0.19
CCGCGGCC,0.455
AGTCATCG,-0.075
AATTTATG,-0.142
CGATGTAG,0.00607
TAGATCAA,-0.346
GACCGCAA,0.173
AATAAATG,-0.207
CACAAACG,-0.0249
CGGCCCAA,0.139
ATCGCTCG,0.147
CTTACGAA,-0.241
ACCCAGTA,-0.213
AACGCTCG,0.166
CGTTTGTA,-0.0372
TGCAGACA,-0.327
AATCTTAG,-0.0771
CGCAAGAG,0.0934
CGGTCAAG,0.179
ATCTCACC,0.000905
CAGAGAGC,-0.0604
GCCTGTCC,-0.0799
ATAGTCGA,-0.184

# Series 5
# Target: Prothrombin, mature alpha-thrombin (F2, Homo sapiens, UniProt P00734)
# Technique: aptamer microarray, sandwich
# Form: DNA with 2'F-ANA
# Medium: in vitro
# Tested at: 200 nM
# Setting: whole 15-mer aptamer, many near background
# Added: Cy3 exosite-II aptamer, 400 nM
# Reading: higher = stronger binding
# Oligonucleotide: GGTTGGTGTGGTTGG
Modification,mean fluorescence intensity
2'F-ANA at 1 2 3 6 7 10 13 14 15,53.8 a.u.
2'F-ANA at 1 5 6 8 9 12 15,117 a.u.
2'F-ANA at 1 3 4 6 9 10 11 14,52.5 a.u.
2'F-ANA at 1 2 3 6 8 9 13,154 a.u.
2'F-ANA at 1 2 3 5 6 9 11 13,50.7 a.u.
2'F-ANA at 1 4 5 7 9 10 12 13,48 a.u.
2'F-ANA at 2 3 6 9 10 11 12 14,250 a.u.
2'F-ANA at 5 7 11 12 15,119 a.u.
2'F-ANA at 1 2 3 4 5 6 8 10,51.8 a.u.
2'F-ANA at 4 5 7 8 10,47.8 a.u.
2'F-ANA at 2 3 5 7 8 9 15,119 a.u.
2'F-ANA at 1 2 5 6 12 13,85.7 a.u.
2'F-ANA at 1 2 3 5 8 10 11 14 15,48.8 a.u.
2'F-ANA at 2 4 5 6 10 11 12 13 14 15,45.9 a.u.
2'F-ANA at 10 14,122 a.u.
2'F-ANA at 1 6 8 10 11 12 13,63.5 a.u.
2'F-ANA at 1 2 3 4 6 7 8 11 12 13 14 15,68.6 a.u.
2'F-ANA at 1 2 3 4 5 9 10 12 13 14,48.5 a.u.
2'F-ANA at 1 3 7 9 10 12 14 15,89.5 a.u.
2'F-ANA at 1 3 5 6 11 14 15,48.4 a.u.
2'F-ANA at 2 7 8 9 13 14,154 a.u.
2'F-ANA at 1 2 3 7 9 10 13 15,83.4 a.u.
2'F-ANA at 3 4 5 6 7 10 12 15,57.1 a.u.
2'F-ANA at 3 5 10 13,53.8 a.u.
2'F-ANA at 6 8 9 11 12,687 a.u.

# A few entries again (series 1):
Oligonucleotide,E-score
ATCGACGA,0.00781
AGGCCTAC,-0.2
CCAGTACA,0.13
AATAAGTC,0.212
CACAGGAA,0.048
AAATCATT,0.303
ACTCAACA,0.195
CTTGTTTA,0.0465
ACAAGTAG,0.075
AAATCTGA,0.084
